{"data": "Published values pooled from the literature", "target": "Mitogen-activated protein kinase kinase kinase kinase 2 (MAP4K2, Homo sapiens, UniProt Q12851)", "note": "Lines come from different studies, so protocols differ. Values joined by “and” are separate records of one study, mostly repeats; a detail may differ."}
{"Structure (SMILES)": "O=C=[N][Ru-4]123([n]4c5ccc(O)cc5c5c6c(c7cc(F)c[n+]1c7c54)C(=O)NC6=O)[S+]1CC[S+]2CC[S+]3CC1 (stereo not drawn)", "assay": "enzyme activity", "setting": "100 nM, human enzyme, together with: 10 µM ATP", "how to read": "relative to: untreated", "quantity": "remaining activity", "result": "109%"}
{"Structure (SMILES)": "Cc1cccc(O[C@H]2CCC[C@@H](C(C)CNCc3ccncc3)C2)c1 (relative stereo)", "assay": "enzyme activity, inhibitor", "setting": "1 µM", "quantity": "inhibition", "result": "1%"}
{"Structure (SMILES)": "COc1c(OCCCN2CCOCC2)ccc2c1N=C(NC(=O)c1cnc(N)nc1)N1CCN=C21", "assay": "kinase activity, inhibitor", "setting": "1 µM", "how to read": "relative to: untreated control", "quantity": "remaining activity", "result": "95%"}
{"Structure (SMILES)": "CC(C)=CC1OC(C)(C)C2C=C3C(=O)C(Cl)=CC(O)C3C3C(O)C4OC4C(=O)C132 (stereo not drawn)", "assay": "cell-free assay, competition with immobilised ligand", "setting": "10 µM", "quantity": "remaining binding", "result": "76%"}
{"Structure (SMILES)": "NC(=O)C[C@H]1CCc2sc3ncnc(O[C@H]4CC[C@H](N5CCOCC5)CC4)c3c21", "assay": "enzyme activity, inhibitor", "setting": "10 µM", "quantity": "inhibition", "result": "9%"}
{"Structure (SMILES)": "C=CC(=O)Nc1cccc(-c2cnc3[nH]cc(C(=O)NC(C)(C)C)c3n2)c1", "assay": "kinase activity", "setting": "0.1 µM", "quantity": "inhibition", "result": "71%"}
{"Structure (SMILES)": "Nc1ncc2c(n1)-c1c([nH]c3ccc(C4=CCOCC4)cc13)CCC2", "assay": "binding, competition with immobilised ligand", "setting": "1 µM", "quantity": "remaining binding", "result": "94%"}
{"Structure (SMILES)": "C=CC(=O)N1Cc2nc(-c3cc(-c4cc(Cl)cnc4Cl)c(F)cc3F)n(-c3ccncn3)c2C1", "assay": "cell-free assay, inhibitor", "setting": "1 µM", "quantity": "inhibition", "result": "-5%"}
{"Structure (SMILES)": "Nc1ncc(-c2cc(-c3cnn(CC(F)(F)F)c3)ncc2F)nc1C(=O)NC1CNCC(F)C1 (stereo not drawn)", "assay": "enzyme activity", "setting": "1 µM", "how to read": "relative to: DMSO control", "quantity": "remaining activity", "result": "96.4%"}
{"Structure (SMILES)": "COc1ccc(NC(=O)Nc2ccc3c(c2)C(=O)N(C(C)CO)CC(C)C(CN(C)Cc2ccc4c(c2)OCO4)O3)cc1 (stereo not drawn)", "assay": "kinase activity, KinaseProfiler", "setting": "0.03 µM, species human", "how to read": "relative to: control", "quantity": "remaining activity", "result": "97%"}
{"Structure (SMILES)": "COc1cc(Nc2nccc(-c3cnn4nc(OC)ccc34)n2)cc(C(F)(F)F)c1", "assay": "binding, competition with immobilised ligand", "setting": "1 µM", "quantity": "remaining binding", "result": "92%"}
{"Structure (SMILES)": "CCN1CCN(Cc2ccc(C(=O)Nc3ccc(C)c(NCc4cnc5[nH]ccc5c4OC)c3)cc2C(F)(F)F)CC1", "assay": "binding, competition with immobilised ligand", "setting": "1 µM", "quantity": "remaining binding", "result": "5.2%"}
{"Structure (SMILES)": "CNC(=O)C1CCN(c2cc(C)c(F)cc2NC(=O)c2ccc(-c3cc(O)ccc3C)c(C)c2)CC1", "assay": "binding, competition with immobilised ligand", "setting": "1 µM", "quantity": "remaining binding", "result": "64%"}
{"Structure (SMILES)": "N[C@H]1CC[C@H](Nc2nccc(-c3cccnc3Oc3ccc(NC(=O)NC4CC4)c4ccccc34)n2)CC1", "assay": "kinobead competition pulldown", "system": "HEK293/HCT116 lysate mixture", "setting": "10 µM, 1 h, 4 °C", "how to read": "lower = stronger competition", "quantity": "log2 LFQ intensity", "result": "23.9 and 24 and 24.2"}
{"Structure (SMILES)": "CN1CCN(Cc2ccc(-c3ccc(CO[C@H]4CCC[C@@H]4NC(=O)c4cc(-c5cnn(C)c5)cnc4N)cc3)cc2)CC1", "assay": "enzyme activity, inhibitor", "setting": "0.1 µM", "quantity": "inhibition", "result": "2%"}
{"note": "Some of these lines once more:"}
{"Structure (SMILES)": "CNC(=O)C1CCN(c2cc(C)c(F)cc2NC(=O)c2ccc(-c3cc(O)ccc3C)c(C)c2)CC1", "assay": "binding, competition with immobilised ligand", "setting": "1 µM", "quantity": "remaining binding", "result": "64%"}
{"Structure (SMILES)": "N[C@H]1CC[C@H](Nc2nccc(-c3cccnc3Oc3ccc(NC(=O)NC4CC4)c4ccccc34)n2)CC1", "assay": "kinobead competition pulldown", "system": "HEK293/HCT116 lysate mixture", "setting": "10 µM, 1 h, 4 °C", "how to read": "lower = stronger competition", "quantity": "log2 LFQ intensity", "result": "23.9 and 24 and 24.2"}
